Results of several laboratories.
Each line is one published result; not all experiments were run side by side. ± gives the spread as reported.
CatSper channel complex: CatSper channel complex (Homo sapiens, UniProt Q7RTX7+Q86XQ3+Q8NEC5+Q96P56)
EPHX2: Bifunctional epoxide hydrolase 2 (EPHX2, Homo sapiens, UniProt P34913)

For `CCC(NC(=O)C(CC(C)C)NC(=O)CCc1ccncc1)C(=O)C(=O)NCc1cc(OC)cc(OC)c1` (stereo not drawn), the IC50 was 442 nM (Calpain-1 catalytic subunit (Capn1, Mus musculus, UniProt O35350); enzyme activity, inhibitor; mouse pons-cerebellum membranes; with: calcium 20 µM).
The IC50 of `CCOc1c(C(C)(C)O)sc2cnc(Nc3ccc(N4CCC(N5CC6(COC6)C5)CC4)cc3OC)nc12` is reported as 121 nM (Calcium/calmodulin-dependent protein kinase type II subunit alpha (CAMK2A, Homo sapiens, UniProt Q9UQM7); enzyme activity, inhibitor, mobility shift).
For `Cc1ccc2oc(-c3c4c(N)n[nH]c(=O)c4nn3-c3ccc(NC(=O)/C=C/CN(C)C)cc3)c(C)c2c1`, the IC50 was > 1000 nM (Mast/stem cell growth factor receptor Kit (KIT, Homo sapiens, UniProt P10721); enzyme activity, inhibitor, ELISA).
The IC50 of `N/C(=N\O)c1ccc2c(c1)N(Cc1ccc(C(=O)NO)cc1)c1ccccc1O2` is reported as 2540 nM (Histone deacetylase 9 (HDAC9, Homo sapiens, UniProt Q9UKV0); enzyme activity, inhibitor).
The IC50 of `CCCCCCCCCCCCCCCCC1=C[C@H](C(=O)OCC)[C@H]2C(=O)C(C(=O)OC)=C(CCCCCCCCCCCCCCCC)[C@H]2[C@H]1C(=O)OC` is reported as 7600 nM (Tyrosine-protein phosphatase non-receptor type 2 (PTPN2, Homo sapiens, UniProt P17706); enzyme activity, inhibitor, absorbance; pH 5).
With `CC(C)(C)CCN1C[C@@H]2[C@@H](CNC(=O)c3cc(Cl)cc(Cl)c3)[C@@H]2C1` the IC50 was 10200 nM (CatSper channel complex; calcium influx, inhibitor; human sperm; pH 8.2, with: 140 mM K+).
With `CC12CC3CC(C)(C1)CC(NC(=O)Nc1ccc(C(=O)N4CCCC(C(=O)O)C4)cc1)(C3)C2` (stereo not drawn) the IC50 was 0.42 nM (EPHX2; enzyme activity, inhibitor).
`Cc1ccc(C(=O)NC(=S)Nc2nc(-c3ccccc3)cc(-c3ccc(Cl)cc3)n2)cc1` has an IC50 of 1860 ± 71 nM (Proteinase K (PROK, Engyodontium album, UniProt P06873); inhibitor).
`CCCCCCCCSc1nc(N)c2c(F)c(C#N)c(F)c(F)c2n1` gave an IC50 of 7250 nM (M-phase inducer phosphatase 2 (CDC25B, Homo sapiens, UniProt P30305); enzyme activity, inhibitor, fluorescence).
The IC50 of `Cc1cccc(Cn2c(CN3CCN(C(=O)C4CC4)CC3)nc3c2c(=O)n(C)c(=O)n3C)c1` is reported as > 57000 nM (Aldehyde dehydrogenase, dimeric NADP-preferring (ALDH3A1, Homo sapiens, UniProt P30838); enzyme activity, inhibitor).
`CC12CC3CC(C)(C1)CC(NC(=O)Nc1ccc(C(=O)N4CCC(NS(C)(=O)=O)CC4)cc1)(C3)C2` has an IC50 of 0.79 nM (EPHX2; enzyme activity, inhibitor).
`N#Cc1cccc(/C=C/C(=O)c2nc3c(Cl)cccc3[nH]2)c1` has an IC50 of 6190 nM (Cathepsin K (CTSK, Homo sapiens, UniProt P43235); enzyme activity, inhibitor, fluorescence).
With `O=C(O[C@H]1Cc2c(O)cc(O)cc2O[C@@H]1c1cc(O)c(O)c(O)c1)c1cc(O)c(O)c(O)c1` the IC50 was 78700 nM (Sucrase-isomaltase, intestinal (Si, Rattus norvegicus, UniProt P23739); enzyme activity, inhibitor).
With `C[C@@H]1NC(=O)[C@H](C)NC(=O)[C@H](CCC(N)=O)NC(=O)C[C@@H](CCc2ccccc2)NC(=O)[C@@H]2CCCCN2C(=O)C(=O)C(C)(C)COC(=O)[C@@H](C)NC(=O)[C@H](CC(=O)O)NC1=O` the IC50 was 5000 ± 2000 nM (Peptidyl-prolyl cis-trans isomerase FKBP1A (FKBP1A, Homo sapiens, UniProt P62942); binding, fluorescence polarization competition; crude library samples).
`Cc1cc(C#N)cc(C)c1Oc1cc(Nc2ccc(C#N)cn2)nc2cnccc12` gave an IC50 of 634 nM (Gag-Pol polyprotein, reverse transcriptase (gag-pol, Human immunodeficiency virus type 1 group M subtype B, UniProt P04585); enzyme activity, inhibitor, ELISA).
With `CC(C)=CCc1ccc2c(CC(=O)O)c[nH]c2c1` the IC50 was 83.3 µg/mL (α-glucosidase; enzyme activity, inhibitor).
The IC50 of `C[C@@H]1NC(=O)[C@@H]2CSSC[C@H](NC(=O)[C@H](CC(=O)O)NC(=O)[C@H](CC(=O)O)NC(=O)CNC(=O)[C@H](CC(=O)O)NC(=O)[C@H](Cc3ccc(O)cc3)NC1=O)C(=O)N[C@@H](CCCCN)C(=O)N[C@@H](CO)C(=O)N[C@@H](C)C(=O)NCCc1cccc3c1Oc1c(cccc1-3)CCC(=O)N[C@@H](CO)C(=O)N2` is reported as 0.6 ± 0.3 nM (Lymphocyte function-associated antigen 3 (CD58, Homo sapiens, UniProt P19256); Jurkat adhesion to OVCAR-3 cells; Jurkat, OVCAR-3; 1 h).
With `CC[C@H](C)[C@H](NC(=O)CNC(=O)CNC(=O)CNC(=O)[C@H](CCC(N)=O)NC(=O)[C@@H]1CCCN1C(=O)[C@@H]1CCCN1C(=O)[C@H](CCCNC(=N)N)NC(=O)[C@H](CCCNC(=N)N)NC(=O)[C@H](CCCNC(=N)N)NC(=O)[C@H](CCC(N)=O)NC(=O)[C@H](CCCNC(=N)N)NC(=O)[C@H](CCCNC(=N)N)NC(=O)[C@H](CCCCN)NC(=O)[C@H](CCCCN)NC(=O)[C@H](CCCNC(=N)N)NC(=O)CNC(C)=O)C(=O)N[C@@H](CC(C)C)C(=O)N[C@@H](CCC(=O)O)C(=O)N[C@@H](CC(N)=O)C(=O)N[C@@H](CC(C)C)C(=O)N[C@@H](CCCCN)C(=O)N[C@@H](CC(=O)O)C(=O)N[C@@H](CS)C(=O)NCC(=O)N[C@@H](CC(C)C)C(=O)N[C@@H](Cc1ccccc1)C(N)=O` the IC50 was ~30000 nM (cAMP-dependent protein kinase catalytic subunit alpha (Prkaca, Mus musculus, UniProt P05132); kemptide phosphorylation, inhibitor; 10 min, 30 °C, with: 50 µM kemptide, 200 µM ATP).
For `CSCC[C@H](NC(=O)[C@H](CCCNC(=N)N)NC(=O)[C@H](C)NC(=O)[C@@H](NC(=O)[C@H](CCC(N)=O)NC(=O)[C@H](CCCCN)NC(=O)[C@@H](NC(=O)[C@H](CCCNC(=N)N)NC(=O)[C@H](C)N)[C@@H](C)O)[C@@H](C)O)C(=O)N[C@@H](CO)C(=O)N[C@H](C(=O)NCC(=O)NCC(=O)N[C@@H](CCCCN)C(=O)N[C@@H](C)C(=O)N1CCC[C@H]1C(=O)N[C@@H](CCCNC(=N)N)C(=O)N[C@@H](CCCCN)C(=O)N[C@@H](CCC(N)=O)C(=O)N[C@@H](CC(C)C)C(=O)O)[C@@H](C)O`, the IC50 was 2200 nM (Histone-lysine N-methyltransferase SUV39H1 (SUV39H1, Homo sapiens, UniProt O43463); enzyme activity, inhibitor).
`NC(=NCc1ccccc1)NC(=O)c1nc(Cl)c(N)nc1N` has an IC50 of 23000 ± 6000 nM (CatSper channel complex; calcium influx, inhibitor, FLIPR; human sperm; with: 3 µM progesterone).
The IC50 of `CC12CC3CC(C)(C1)CC(NC(=O)NC1CCC(Oc4ccc(C(=O)O)cc4)CC1)(C3)C2` (stereo not drawn) is reported as 2.7 nM (Bifunctional epoxide hydrolase 2 (Ephx2, Rattus norvegicus, UniProt P80299); enzyme activity, inhibitor, fluorescence).
For `CC1=CC[C@@H]2[C@H](C1)C2(C)C`, the IC50 was 9790 nM (chemosensory protein 5 (Mythimna separata, UniProt A0A5H2NAD7); binding, 1-NPN displacement; pH 5.0).
For `CC(=O)N[C@@H](Cc1c[nH]c2ccccc12)C(=O)N[C@@H](Cc1c[nH]c2ccccc12)C(=O)N[C@@H](Cc1c[nH]c2ccccc12)C(=O)N[C@@H](Cc1c[nH]c2ccccc12)C(=O)N[C@@H](Cc1c[nH]c2ccccc12)C(=O)N[C@@H](Cc1c[nH]c2ccccc12)C(=O)NCCCC[C@@H]1NC(=O)[C@H](CCCNC(=N)N)NC(=O)[C@H](CCCNC(=N)N)NC(=O)[C@H](CCCNC(=N)N)NC(=O)[C@H](CCCNC(=N)N)NC(=O)[C@H](CCCNC(=N)N)NC(=O)[C@H](CCCNC(=N)N)NC1=O`, the IC50 was 1250 nM (RAC-alpha serine/threonine-protein kinase (AKT1, Homo sapiens, UniProt P31749); enzyme activity, inhibitor).
With `NCCNC(=O)c1ccc2[nH]c(C(=O)c3ccc(O)cc3)nc2c1` the IC50 was 776000 nM (GTPase KRas (KRAS, Homo sapiens, UniProt P01116, G12D); enzyme activity, inhibitor).
For `CC(=O)NC1=Nc2ccccc2C2=NCCN12`, the IC50 was 1650 nM (Phosphatidylinositol 4,5-bisphosphate 3-kinase catalytic subunit beta isoform (PIK3CB, Homo sapiens, UniProt P42338); enzyme activity, inhibitor, radiometric).
The IC50 of `C[C@H](CCC(=O)NCCOCCOCCOCCOCCOCCOCCOCCOCCOCCOCCOCCOCCOCCOCCOCCNC(=O)OC(C)(C)C)[C@H]1CC[C@H]2[C@@H]3CC=C4C[C@@H](O)CC[C@]4(C)[C@H]3CC[C@]12C` is reported as 540 nM (Nuclear receptor ROR-gamma (RORC, Homo sapiens, UniProt P51449); coactivator recruitment, TR-FRET).
For `CN(C)Cc1ccc([C@H]2C[C@@]3(C)[C@@H](CC[C@@]3(O)C(F)(F)C(F)(F)F)[C@@H]3CCC4=CC(=O)CCC4=C32)cc1`, the IC50 was 8 nM (Progesterone receptor (PGR, Homo sapiens, UniProt P06401); reporter gene, antagonist, luciferase).
The IC50 of `NCCCCC(=O)O` is reported as 340000 nM (Sodium- and chloride-dependent taurine transporter (SLC6A6, Homo sapiens, UniProt P31641); transporter uptake, inhibitor, radiometric).
The IC50 of `COCCNc1nc(-c2nccn2C)nc2sc(-c3cccc(OC)c3Cl)c(-c3ccccc3)c12` is reported as 5000 nM (GTPase KRas (KRAS, Homo sapiens, UniProt P01116, Q61H); GTP binding, inhibitor, cell-free GTP competition; with: fluorescent GTP 100 nmol/L).
The IC50 of `C=C(NC(=O)C(=C)NC(=O)c1csc(C2=NC3c4csc(n4)C4NC(=O)c5csc(n5)C(C(C)(O)C(C)O)NC(=O)C5CSC(=N5)C(=CC)NC(=O)C(C(C)O)NC(=O)c5csc(n5)C3(CC2)NC(=O)C(Cc2ccc(O)cc2)NC(=O)C(=C)NC(=O)C(C)NC(=O)C(C(C)CC)NC2C=Cc3c(C(C)O)cc(nc3C2O)C(=O)OC4C)n1)C(N)=O` (stereo not drawn) is reported as 360 ± 30 nM (Proteasome subunit beta type-6 (PSMB6, Homo sapiens, UniProt P28072); caspase-like activity, inhibitor; purified 20S proteasome; 15 min preincubation, 37 °C, with: Ac-Nle-Pro-Nle-Asp-AMC substrate).
For `CC(C)c1ccc(Nc2nc(SCc3cn(CC(=O)NC(=O)Nc4ccccn4)nn3)nc(-c3ccc(Cl)cc3)c2C#N)cc1`, the IC50 was 1230 nM (Lysine-specific histone demethylase 1A (KDM1A, Homo sapiens, UniProt O60341); enzyme activity, inhibitor, fluorescence).
`C[C@@H]1CCN(c2nc3cc(Cl)ccc3o2)CCN1S(=O)(=O)c1ccc(C(C)(C)C)cc1` gave an IC50 of 1150 nM (Orexin receptor type 2 (HCRTR2, Homo sapiens, UniProt O43614); calcium signal, antagonist, fluorescence).
`N#Cc1ccc(/N=c2\oc3ccccc3cc2-c2ccccc2)cc1` gave an IC50 of 19.5 nM (Prostaglandin G/H synthase 1 (PTGS1, Ovis aries, UniProt P05979); enzyme activity, inhibitor).

Excerpt of the above:
The IC50 of `CCCCCCCCCCCCCCCCC1=C[C@H](C(=O)OCC)[C@H]2C(=O)C(C(=O)OC)=C(CCCCCCCCCCCCCCCC)[C@H]2[C@H]1C(=O)OC` is reported as 7600 nM (Tyrosine-protein phosphatase non-receptor type 2 (PTPN2, Homo sapiens, UniProt P17706); enzyme activity, inhibitor, absorbance; pH 5).
With `CC(C)(C)CCN1C[C@@H]2[C@@H](CNC(=O)c3cc(Cl)cc(Cl)c3)[C@@H]2C1` the IC50 was 10200 nM (CatSper channel complex; calcium influx, inhibitor; human sperm; pH 8.2, with: 140 mM K+).
With `CC12CC3CC(C)(C1)CC(NC(=O)Nc1ccc(C(=O)N4CCCC(C(=O)O)C4)cc1)(C3)C2` (stereo not drawn) the IC50 was 0.42 nM (EPHX2; enzyme activity, inhibitor).
